Assay results collected from several papers.
A part holds a random share of what one study measured. Substitutions count along the parent as printed.

Sample 1
Target: CCNB2, cyclin fold, Cln2 fusion (human)
Technique: yeast growth competition, sequencing
Sample: yeast
Setting: strong parent motif
Baseline: not given
Reading: higher = stronger binding
Endpoint: normalised enrichment score
Starting sequence: E2F1 docking peptide (human); PPVKRRLDFETDH; partner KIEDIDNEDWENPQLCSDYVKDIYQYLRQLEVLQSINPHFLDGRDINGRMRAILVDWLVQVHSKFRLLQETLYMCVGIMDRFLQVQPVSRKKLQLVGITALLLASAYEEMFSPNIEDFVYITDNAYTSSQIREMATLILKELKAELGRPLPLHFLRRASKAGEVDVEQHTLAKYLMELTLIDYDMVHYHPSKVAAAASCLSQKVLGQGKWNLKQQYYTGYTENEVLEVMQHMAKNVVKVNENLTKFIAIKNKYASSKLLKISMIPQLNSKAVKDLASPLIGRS
V3F: 0.62
L7S: 0.104
V3T: 1.91
V3Q: 0.461
R5W: -0.0498
R5F: 0.432
F9A: 0.266
K4V: 2.94

Sample 2
Target: Histone acetyltransferase KAT6A, winged helix 2, GST fusion (KAT6A, Homo sapiens, UniProt Q92794, residues 85-181)
Technique: protein binding microarray
Form: double-stranded DNA, one strand shown
Sample: in vitro
Concentration: not given
Setting: 8-mer, flanks averaged, mean of 2 arrays, mostly near background
Baseline: not given
Reading: higher = stronger binding
Endpoint: E-score
Target sequence (chain): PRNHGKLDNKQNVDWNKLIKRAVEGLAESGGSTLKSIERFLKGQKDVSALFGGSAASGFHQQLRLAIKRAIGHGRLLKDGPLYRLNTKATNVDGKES
TATTCGAA: 0.0168
AGAATTCT: 0.206
ACCTACTA: -0.186
CCGACGGC: 0.147
AACCCGCG: 0.121
AAGATTCC: 0.0884
TAGATACA: -0.145
GATATCTA: -0.0605

Sample 3
Substance: PhoQ, residues 284 288 289 292 302 303 TNSAEL
Technique: Sort-seq
Refers to: YFP reporter
Sample: E. coli
Setting: PhoQ-PhoP variant library
Together with: 10 µM Mg2+
Baseline: high Mg2+ state
Reading: higher = stronger signaling
Endpoint: fold induction
PhoP, residues 12 14 15 18 19 SFCSL (Escherichia coli, UniProt P23836): 30.4
PhoP, residues 12 14 15 18 19 AYFRS (Escherichia coli, UniProt P23836): 19.8
PhoP, residues 12 14 15 18 19 HHYTI (Escherichia coli, UniProt P23836): 1.26

Sample 4
Target: Interferon regulatory factor 3, full length, phosphomimetic (IRF3, Homo sapiens, UniProt Q14653, residues 1-427, S386D/S396D/S398D/S402D/T404D/S405D)
Technique: protein-binding microarray
Form: double-stranded DNA, one strand shown
Sample: in vitro
Concentration: 2540 nM top
Setting: 60-bp whole probe
Together with: salmon DNA 0.4 mg/ml
Baseline: random background probes
Reading: higher = stronger binding
Endpoint: fitted relative affinity
Constant ends, left off below: GCCTAGCAC … GTCTTGATTCGCTTGACGCTGCTG
Construct (chain): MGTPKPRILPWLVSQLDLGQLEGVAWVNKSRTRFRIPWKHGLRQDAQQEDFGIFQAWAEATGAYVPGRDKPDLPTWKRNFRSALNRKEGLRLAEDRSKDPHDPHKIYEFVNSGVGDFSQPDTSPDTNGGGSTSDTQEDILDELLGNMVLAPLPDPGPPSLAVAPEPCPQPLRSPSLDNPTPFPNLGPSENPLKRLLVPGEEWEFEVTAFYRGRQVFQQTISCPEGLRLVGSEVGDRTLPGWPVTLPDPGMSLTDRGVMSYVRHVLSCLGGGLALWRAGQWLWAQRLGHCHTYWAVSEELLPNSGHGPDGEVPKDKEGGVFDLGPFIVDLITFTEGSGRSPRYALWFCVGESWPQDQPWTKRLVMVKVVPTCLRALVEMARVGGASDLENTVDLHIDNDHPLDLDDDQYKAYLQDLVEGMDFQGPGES
GAAAATTTCTTCCTCCCCCTGTGCTAG: 0.243 z-score
TTAGGTATCGGTTTCGTTTAGTGCTAG: 7.78 z-score
TCATTTTGAGTTTTCCTACTGTGCTAG: 2.08 z-score
GTCGGTTTCGGGACTGGGGACGTGCTA: 6.07 z-score
TCATCTCTCTTAAATAGGACTGTGCTA: 1.25 z-score
GACGGACTGGTCTTTCGGGACGTGCTA: -0.243 z-score
TCATCATTATTGTCTCCCACTGTGCTA: 0.375 z-score

Excerpt of the above (sample 1):
V3T: 1.91
V3Q: 0.461
